Measurements collected from several papers.
Parts stem from different laboratories: compare values within a part only. Changes are numbered by the printed parent chain.

Series 1
Target: CCNE1, cyclin fold, Cln2 fusion (human)
Technique: yeast growth competition, sequencing
Medium: yeast
Setting: strong parent motif
Reference: not given
Reading: higher = stronger binding
Starting sequence: CDC25A docking peptide (human); PPHRRRLLFACSP
Change | normalised enrichment score
L7T | 0.939
S12N | 1.54
S12I | 1.97
P13D | 2.35
H3F | 2.2
S12L | 1.68
P2K | 1.08
F9Q | -0.208
P1W | 0.955

Series 2
Target: RNA binding protein fox-1 homolog 2, RRM domain, GST-SBP tag (RBFOX2, Homo sapiens, UniProt O43251-10, residues 100-194)
Technique: RNA Bind-n-Seq
Form: RNA
Medium: in vitro
Tested at: 365 nM
Setting: natural RNA segment, single round, ends assumed
Reference: no-protein control
Reading: higher = stronger binding
All sequences stand within: GGGAGUUCUACAGUCCGACGAUC … UGGAAUUCUCGGGUGCCAA
Construct (chain): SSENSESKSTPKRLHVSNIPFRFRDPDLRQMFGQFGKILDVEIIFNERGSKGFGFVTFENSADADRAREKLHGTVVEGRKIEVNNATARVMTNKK
Sequence | RBNS enrichment (R)
AGGUCACCAACUCCACAGAUGAAACAGUUCAAUAAUGAGGAAACAGGUGAGCCCUGAAAACACAAAAGGACAGUUCUGUGUUGAAACACCCCAUCCCCUCACGUUCUCAC | 0.419
UUUAUUUAUCUCUUCCUGAACCAUGAAUUUCAUAUGUGGAAUAUUGCUAUAUUGACAGAUUCUUGCCUGUCUGUGUUAUUCUAGGAUCUGUUACAGGUCCAUGGCAAUUA | 1.19
CUAGAUUUAGAUGCUCAAGAAUAAAUGUACUGAGAAGAGUUAAUAAUUGUUUAUUCCCAAAUUGAAAUACACAAGAAAAUAUAAUUUAAGUCUGAAAUUUAACGCCUACU | 0.333
GUUUCUCUGGAGAUUCCUGCAACCUCAAGAGACUUCCCAGGCGCUCAGGCCUGGAUCUUGCUCCUCUGUGAGGAACAAGGGUGCCUAAUAAAUACAUUUCUGCUUUAUUA | 0.2
AUACUGGAUUGAAGGAAGGGCUGUCUCCUUUUAACUUCUUGUUGAUAGUUGCAAGUUCUUUAUGCACCUUCUACCCCUUCUGAGCCACUACUAUUCAAGCAGAGAUUUUG | 0.986
AAGUUUGACUCGAGAAAGACGACCCUCCAGGAUUUUCAUUUGGACGAGGACAGGACCGUGAGAGUCCCCAUGAUGUCAGAUCCUAAGGCCAUCUUACGAUACGGCUUGGA | 0.818
CGCGUCCUGUAGCUAGAGGCUCGAACCUACCAGCCCGCGACCGCCACCCACCCAGCGGUAUUGGAAGUGGCGACCAGGGGUGACCCGUCGUGGAGCCACUUCUCGCACUG | 0.196
AGUCAGCUGUCCUUCACCCUGGGAAAGUCCAUGCCAGCUGUGGACUGCUGGGAGCCAUGUUUGUCACCUUAGUAGAAUGCACCAAUGUUCCCUUCUGCAUCUCUGGCCCU | 2.64
CGGGCAGCCCUGUGAGUUUCCUAUCUGUUCCAGACUAGUAUCGCCAAUCUCUCCCAGCUCUCUUCUUUCCUCCCUGGCCUUUGUCCUGCAGGAGGUAGCAUCACCUCUUG | 1.03

Series 3
Target: ABI1, truncated, D143A, DHFR fusion (Arabidopsis thaliana)
Technique: DHFR PCA, deep sequencing
Medium: yeast
Setting: methotrexate growth selection, single substitutions
With: (+)-ABA 0.0091 µM
Reference: wild-type fitted maximum
Reading: higher = stronger binding
Starting sequence: PYL1, truncated, DHFR fusion (Arabidopsis thaliana); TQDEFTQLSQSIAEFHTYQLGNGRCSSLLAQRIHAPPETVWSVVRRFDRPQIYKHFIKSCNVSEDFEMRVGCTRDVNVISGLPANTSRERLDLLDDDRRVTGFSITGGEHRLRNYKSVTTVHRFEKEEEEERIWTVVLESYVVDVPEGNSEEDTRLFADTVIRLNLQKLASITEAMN; partner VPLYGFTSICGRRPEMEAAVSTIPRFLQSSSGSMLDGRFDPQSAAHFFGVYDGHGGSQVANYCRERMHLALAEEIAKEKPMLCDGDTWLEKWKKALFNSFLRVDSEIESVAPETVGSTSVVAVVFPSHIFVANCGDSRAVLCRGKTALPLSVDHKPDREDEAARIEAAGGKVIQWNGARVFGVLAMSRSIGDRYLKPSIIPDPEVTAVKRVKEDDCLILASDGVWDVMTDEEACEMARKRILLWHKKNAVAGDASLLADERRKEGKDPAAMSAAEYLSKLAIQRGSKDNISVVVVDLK
Change | relative binding score
F56M | -1.68%
L166D | -1.9%
F5W | 36.5%
E125K | 20.6%
D75M | 26.4%
D65W | 1.24%

Mixed results
Molecule | target | test | test system | setting | how to read | endpoint | value
PhoQ, residues 284 288 289 292 302 303 SMYGEC | PhoP, residues 12 14 15 18 19 AWHSL (Escherichia coli, UniProt P23836) | Sort-seq, refers to: YFP reporter | E. coli | PhoQ-PhoP variant library, with: 10 µM Mg2+ | reference: high Mg2+ state, higher = stronger signaling | fold induction | 9.23

Excerpt of the above (series 3):
Change | relative binding score
F5W | 36.5%
L166D | -1.9%
